# Results gathered from unrelated publications.
# Every numbered part comes from another study and shows a few of its results, in no order. Positions count from the first letter of the parent shown.

# Series 1
# Target: RING finger protein unkempt homolog, zinc fingers 1-6, SBP tag (UNK, Homo sapiens, UniProt Q9C0B0, residues 30-357)
# Sequence of UniProt Q9C0B0 (30-357, looked up): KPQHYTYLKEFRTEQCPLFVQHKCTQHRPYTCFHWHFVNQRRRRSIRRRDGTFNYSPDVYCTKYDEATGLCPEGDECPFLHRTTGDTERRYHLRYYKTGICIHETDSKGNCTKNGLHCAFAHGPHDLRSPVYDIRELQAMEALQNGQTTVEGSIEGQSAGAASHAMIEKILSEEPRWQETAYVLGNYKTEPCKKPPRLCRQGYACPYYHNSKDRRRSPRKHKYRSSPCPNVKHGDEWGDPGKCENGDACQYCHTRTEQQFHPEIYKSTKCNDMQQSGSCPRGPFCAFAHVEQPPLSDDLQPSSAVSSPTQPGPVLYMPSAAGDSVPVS
# Technique: RNA Bind-n-Seq
# Molecule type: RNA
# Matrix: in vitro
# Concentration: 100 nM
# Notes: RNA with constant flanks, vertebrate orthologous sites, ends assumed
# Relative to: input RNA pool
# Reading: higher = stronger binding
# Constant ends, left off below: GGGAGUUCUACAGUCCGACGAUC … CAACAGAGGAUUGAGCAUCA
Oligonucleotide,bound/input enrichment [ratio]
CCCUCUGAAUCCCAUAUCUUCUGUUUCAUAGUGCAGAAGUAUUGUUUUCAAUUACAUUAUUAGUGGACUUGUUUUAAUUUUAGGGAAAUUUUCUGUACUGAUACUGUGAGCUUACAUGGA,4.19
UUACUGCACUGCAAAAGCCCUGCCUCUCACGCAGCACAGUGAGGACAAACUGGUCAGCAUCAGGGCAUCACCUGCUCCUACAUUUCCAGUGGUUGUGUCAGCCUUGAACUAGUCUAGCUG,0.292
GCUCUAGUUCUUAACAACAGACACUCCAAAAAGAUUUAGAAAAAAGUUUACAACAUGAUCUAGUUUACGAAGAAGUCUUGUGCUGGAAUACUUUUUAAAAAGUAUUUUUGAAUACCAUCA,0.763
GCCUCCAACAGGCACAUUCAGGGAGAGAUAGGCUUCAGGGAACAUAAAUUUAUUUAAUAGUAGUGAUCAUGAAGUAUAAAUUUGAUAUAAUUGAAUAAUUUGUGAGGGGUGAUGAUAAAU,0.958
GGUUGAUGUUCUGAAGAACCACUUAGUAAAAGAAGGUCGGGUAGAUGAAGAAAUUGCACUUAGAAUUAUCAAUGAGGGUGCUGCCAUUCUUCGGAGAGAGAAAACCAUGAUAGAAGUAGA,0.807
AUUCAAACCUGUGGUACCCUGGCCUCAUGUUGAAGGAGUAGAAGUGGACUUAGAGUCUAUUAGAAGAAAAAACAAGGCCAAAAAUGAACAAGAACACCGUGUUGGAGGAGAUUCUCAGAA,0.277
UUCAUUAUUUGACCAGAGUUGAGGUGACAGAAUUUGAAGACAUCAAAUCAGGUUACAGAAUAGAUUUUUAUUUUGAUGAGAAUCCCUACUUUGAAAAUAAAGUUCUCUCCAAAGAGUUUC,0.583
CCCCGAUUUUAGAUGUGAUAUCUAGGCUCUCAUUCUAGUUUGUUUUUGUCUUUUCUUGUUUAGAUAUCAAUCUUUUAAAUUCUUGCAUUUUAGUAAGAAAGCUACCUUUUUAUGGAUGUU,1.85

# Series 2
# Target: RNA binding protein fox-1 homolog 2, RRM domain, GST-SBP tag (RBFOX2, Homo sapiens, UniProt O43251-10, residues 100-194)
# Technique: RNA Bind-n-Seq
# Molecule type: RNA
# Matrix: in vitro
# Concentration: 365 nM
# Notes: natural RNA segment, single round, ends assumed
# Relative to: no-protein control
# Reading: higher = stronger binding
# Constant ends, left off below: GGGAGUUCUACAGUCCGACGAUC … UGGAAUUCUCGGGUGCCAA
# Residues (chain): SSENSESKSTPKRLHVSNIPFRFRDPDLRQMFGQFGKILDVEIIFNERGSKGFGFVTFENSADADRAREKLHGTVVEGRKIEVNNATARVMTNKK
Oligonucleotide,RBNS enrichment (R)
CUCCCCCCGCACUGCAGCCGCGGGGAGCGCCGCGCCAUCGAGAAGCUCGCGGUGGAAGCCCUGUCCAGCCUGGACGGCGACCUGGCGGGCCGAUACUACGCGCUCAAGAG,0.245
CUGUAAACACAGGGUCCGCUGAUCAAGUCCUUCUUGCUCAUUGCAGUUUGAUUUGCCAGCAGUCAUACUGAGACUAGCUUGAUCCUACACCUGUUAGACAGUGGCAGAGA,0.671
GAUCCCUUCUGUAGCCUAAAGUAUGGCUGGGAAAUGGACUUGAGAAGAUUGGCUUGAAUUAGAUCAUAAUCAUGUGUGAUCCCAUCAUGAAUUCAUUGGAAUUUGUGUUG,0.773
ACAUGACAAGAACAAACCCGGUUUUAAGGGUUGAAUGUAGGGGGAUACCAUUCUGUCUUUUAGACUUUCAACAUCUGCUAUGGUGGAGCACAAAUGUUAUUUAAAAGCAU,1.88
UCUUUUUUGGGGAGGUUGGGGUCAGGGGUUGUUUCUUUGAGAUUUAAGUUUUCAUUUUUGAGGGGUAAUCACCUUCAAGUAAAACAGUAAUAGCAAGAGUGAAGGUACUU,0.543
CCCACGGAGAUCCUAAGCUGGCUGUCUUGUGUGCAGCCUGAGUGGGGUGGUGCAGGCCGGUAGUCUGCCCGUCACUUUGGAUCAUAGCCCUGGGCCUGGCGGCACAGCAG,0.401
AUAAUGUUGGCAUUAUUUUUUAAUUUUUUAAAAAAUAAAUGGUAUCUUAUUUAAUUGUCCUGUUCCUUCCCACUCCCCGCCUCCUAGGAUGUUAGCCCAAGCUCAGGGUA,0.311
GCCGUCGUUUGUUUUCCAUGGAUGCAGAAGUCCAGGUUUCACCAUCUAUUUUCUGUUUUACUCGAUUUUGGUUUGGAGGGAAAAGGGCAUUAGUUUAAAAUGUCGUUUUU,0.802

# Series 3
# Target: CCND2, cyclin fold, Cln2 fusion (human)
# Technique: yeast growth competition, sequencing
# Matrix: yeast
# Notes: weak parent motif
# Relative to: not given
# Reading: higher = stronger binding
# Starting sequence: MASTL docking peptide (human); PMIAKNLMCELDE; partner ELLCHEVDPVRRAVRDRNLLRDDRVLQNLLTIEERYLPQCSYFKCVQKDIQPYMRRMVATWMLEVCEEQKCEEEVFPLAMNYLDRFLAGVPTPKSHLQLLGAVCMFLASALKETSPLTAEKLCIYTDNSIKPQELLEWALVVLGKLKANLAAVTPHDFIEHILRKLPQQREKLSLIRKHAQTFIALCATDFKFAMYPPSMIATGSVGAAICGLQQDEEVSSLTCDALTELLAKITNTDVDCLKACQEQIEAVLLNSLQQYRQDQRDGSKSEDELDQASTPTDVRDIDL
Variant,normalised enrichment score
PMIAKNLWCELDE [M8W],0.123
PMICKNLMCELDE [A4C],-0.00352
PMIAKNLMKELDE [C9K],-0.126
PMIAKQLMCELDE [N6Q],0.394
PMIAKNLMCEMDE [L11M],-0.763
PMIDKNLMCELDE [A4D],0.362
PMIAKNLMDELDE [C9D],-0.147
PMIATNLMCELDE [K5T],-0.217
PMIAKNMMCELDE [L7M],-0.212
PKIAKNLMCELDE [M2K],0.155
PMIARNLMCELDE [K5R],0.0203
PTIAKNLMCELDE [M2T],-0.0579
PMIAKNLMCGLDE [E10G],0.0357
PMIAKKLMCELDE [N6K],0.241
PMIAYNLMCELDE [K5Y],0.0132
PMIAKNLMCERDE [L11R],-0.148

# Series 4
# Target: Fragile X messenger ribonucleoprotein 1, C-terminal low-complexity region (Fmr1, Mus musculus, UniProt P35922)
# Technique: RNA Bind-n-Seq
# Molecule type: RNA
# Matrix: in vitro
# Concentration: 200 nM
# Notes: whole 134-nt RNA, ends assumed
# Together with: 150 mM LiCl
# Relative to: input library
# Reading: higher = stronger binding
# All molecules: 7-deaza-guanosine replaces G
# Constant ends, left off below: GGGAGUUCUACAGUCCGACGAUC … UGGAAUUCUCGGGUGUCAAGG
Oligonucleotide,log2 enrichment
ACCAUACAGGUGGGCAUCUUUGGGAAGUGGGGCAAGGGGGGGAUAGGGAGGGGGGUAACACUUUGGGAACAGGUGGUCCCAGGUCGUUUC,1.39
UCCUGUGCUACACAUCGUAUGUACCGAAUCGGGGUUUUUGGUUUUUGGGGUUUUUGGGGAAAGUAUUAUGUUACGCCGUUCGGAUCUGCA,-1.25
AGUCCUGUGCUACACAUCGUAUGUACCGAAUCGGAAAAGGGAAAAGGGGAAAAGGGGAAAGUAUUAUGUUACGCCGUUCGGAUCUGCACU,-0.69
AGUCCUGUGCUACACAUCGUAUGUACCGAAUCGGGUUUUUGGGUUUUUGGUUUUUGGAAAGUAUUAUGUUACGCCGUUCGGAUCUGCACU,-1.93
UCAAGUCCUGUGCUACACAUCGUAUGUACCGAAUCGGAGGAAAAAAAGGAAAGGAAAGUAUUAUGUUACGCCGUUCGGAUCUGCACUUCC,-0.882
UUCCAGGCUCAAGCACGGACAUCAGUGAGGACUGGGAGAAAGACUUUGACUUGGACAUGACUGAAGAGGAGGUGCAGAUGGCACUUUCCA,-2.98
AAGUCCUGUGCUACACAUCGUAUGUACCGAAUCGGGGUUUUGGGGUUUUGGUUUUGGAAAGUAUUAUGUUACGCCGUUCGGAUCUGCACU,-1.84
AAGUCCUGUGCUACACAUCGUAUGUACCGAAUCGGGGAAAGGGGUGGGGUUUGGGGAAAGUAUUAUGUUACGCCGUUCGGAUCUGCACUU,-1.27

# Mixed results
Molecule,target,test,system,setting,how to read,endpoint,result
"PhoQ, residues 284 288 289 292 302 303 ASVMEA","PhoP, residues 12 14 15 18 19 VQALL (Escherichia coli, UniProt P23836)","Sort-seq, measured: YFP reporter",E. coli,"PhoQ-PhoP variant library, together with: 10 µM Mg2+","relative to: high Mg2+ state, higher = stronger signaling",fold induction,17.7

# Repeated from above (series 2):
Oligonucleotide,RBNS enrichment (R)
CUCCCCCCGCACUGCAGCCGCGGGGAGCGCCGCGCCAUCGAGAAGCUCGCGGUGGAAGCCCUGUCCAGCCUGGACGGCGACCUGGCGGGCCGAUACUACGCGCUCAAGAG,0.245
CUGUAAACACAGGGUCCGCUGAUCAAGUCCUUCUUGCUCAUUGCAGUUUGAUUUGCCAGCAGUCAUACUGAGACUAGCUUGAUCCUACACCUGUUAGACAGUGGCAGAGA,0.671
GAUCCCUUCUGUAGCCUAAAGUAUGGCUGGGAAAUGGACUUGAGAAGAUUGGCUUGAAUUAGAUCAUAAUCAUGUGUGAUCCCAUCAUGAAUUCAUUGGAAUUUGUGUUG,0.773
ACAUGACAAGAACAAACCCGGUUUUAAGGGUUGAAUGUAGGGGGAUACCAUUCUGUCUUUUAGACUUUCAACAUCUGCUAUGGUGGAGCACAAAUGUUAUUUAAAAGCAU,1.88
UCUUUUUUGGGGAGGUUGGGGUCAGGGGUUGUUUCUUUGAGAUUUAAGUUUUCAUUUUUGAGGGGUAAUCACCUUCAAGUAAAACAGUAAUAGCAAGAGUGAAGGUACUU,0.543
CCCACGGAGAUCCUAAGCUGGCUGUCUUGUGUGCAGCCUGAGUGGGGUGGUGCAGGCCGGUAGUCUGCCCGUCACUUUGGAUCAUAGCCCUGGGCCUGGCGGCACAGCAG,0.401
AUAAUGUUGGCAUUAUUUUUUAAUUUUUUAAAAAAUAAAUGGUAUCUUAUUUAAUUGUCCUGUUCCUUCCCACUCCCCGCCUCCUAGGAUGUUAGCCCAAGCUCAGGGUA,0.311
